{"data": "Measurements from different studies", "note": "Parts stem from different laboratories: compare values within a part only."}
{"data": "Study 1", "target": "Diamine acetyltransferase 1 (Homo sapiens, UniProt P21673)", "mode": "inhibitor", "concentration": "10 µM", "reference": "control", "Target sequence (P21673 1-171)": "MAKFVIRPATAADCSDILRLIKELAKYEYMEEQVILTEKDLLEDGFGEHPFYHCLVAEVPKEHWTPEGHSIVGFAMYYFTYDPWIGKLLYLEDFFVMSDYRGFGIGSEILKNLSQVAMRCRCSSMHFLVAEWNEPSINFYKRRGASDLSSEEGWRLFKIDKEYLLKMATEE"}
{"Compound": "CC(=O)CCCC(C)CCCC(C)CCCC(C)C (stereo not drawn)", "remaining activity": "78.4%"}
{"Compound": "C=C1CCC[C@]2(C)C[C@]3(O)OC(=O)C(C)=C3C[C@@H]12", "remaining activity": "85.4%"}
{"Compound": "CCCCCCCC(=O)OCC", "remaining activity": "100%"}
{"Compound": "COc1cc(OC)c2ccc(=O)oc2c1", "remaining activity": "81.8%"}
{"Compound": "CC1(C)[C@@H](O)CC[C@]2(C)[C@H]3C(=O)C=C4[C@@H]5C[C@@](C)(C(=O)O)CC[C@]5(C)CC[C@@]4(C)[C@]3(C)CC[C@@H]12", "remaining activity": "89.4%"}
{"Compound": "C=C(CC[C@@H](C(=O)O)[C@H]1CC[C@@]2(C)C3=C(CC[C@]12C)[C@@]1(C)CC[C@H](O)C(C)(C)[C@@H]1CC3)C(C)C", "remaining activity": "110%"}
{"Compound": "C[C@@H]1O[C@@H](O[C@H]2[C@H](O[C@H]3CC[C@@]4(C)[C@@H](CC[C@]5(C)[C@@H]4CC=C4[C@@H]6CC(C)(C)CC[C@]6(C(=O)O[C@@H]6O[C@H](CO[C@@H]7O[C@H](CO)[C@@H](O)[C@H](O)[C@H]7O)[C@@H](O)[C@H](O)[C@H]6O)CC[C@]45C)[C@]3(C)CO)OC[C@H](O)[C@@H]2O)[C@H](O)[C@H](O)[C@H]1O", "remaining activity": "107%"}
{"Compound": "CC(=O)c1ccc(O)c(O)c1", "remaining activity": "102%"}
{"Compound": "CCCCCCO", "remaining activity": "91%"}
{"Compound": "O=C(O)/C=C/C(=O)O", "remaining activity": "95%"}
{"Compound": "C[C@H]1[C@H](C)CC[C@]2(CO)CC[C@]3(C)C(=CC[C@@H]4[C@@]5(C)CC[C@H](O)C(C)(C)[C@@H]5CC[C@]43C)[C@H]12", "remaining activity": "105%"}
{"Compound": "C[C@H]1CC[C@@]2(O)C(C)(C)[C@@H]3CC[C@@]2(C)[C@H]1C3", "remaining activity": "91.6%"}
{"Compound": "O=C(O)c1ccccc1O", "remaining activity": "103%"}
{"Compound": "CCCCCCCCCCCCCC(=O)O", "remaining activity": "102%"}
{"Compound": "C=C(C)[C@H]1CC[C@H](C)C[C@@H]1O", "remaining activity": "90.7%"}
{"Compound": "C=CCC1=C[C@]2(OC)C(=CC1=O)O[C@H](c1ccc(OC)c(OC)c1)[C@H]2C", "remaining activity": "112%"}
{"Compound": "Cc1cc(C(C)(C)C)c(O)c(C(C)(C)C)c1", "remaining activity": "105%"}
{"Compound": "C/C=C/C=C/C=C\\CC/C=C/C(=O)NCC(C)(C)O", "remaining activity": "89.8%"}
{"data": "Study 2", "species": "human", "sample": "microsomes or S9", "concentration": "2 µM", "time": "0.5 h"}
{"Structure (SMILES)": "Nc1nc(N2CCN(c3ncccn3)CC2)c2nc[nH]c2n1", "remaining compound": "> 100%"}
{"Structure (SMILES)": "COc1cc2c(cc1NC(=O)C(C(C)=O)=C(SC)SC)oc1ccccc12", "remaining compound": "14%"}
{"Structure (SMILES)": "Nc1noc2cc(OCCCCCOc3ccc4c(N)noc4c3)ccc12", "remaining compound": "95.5%"}
{"Structure (SMILES)": "CCn1nc(-c2csc(C)n2)nc1-c1ccc2[nH]c(C)nc2c1", "remaining compound": "> 100%"}
{"Structure (SMILES)": "Cc1ccccc1-c1nc2ccccc2cc1Cn1nc(-c2ccncc2)c2cnc(N)nc21", "remaining compound": "28.2%"}
{"Structure (SMILES)": "COc1cc(-c2nc3c(s2)CNCC3)cc(OC)c1OC", "remaining compound": "> 99.9%"}
{"Structure (SMILES)": "CCCc1ncc(C(O)c2ccc(OCC)cc2)n1C (stereo not drawn)", "remaining compound": "22%"}
{"Structure (SMILES)": "O=C(c1cccnc1Cl)N1CCN(c2nc3nccc(-c4cccs4)n3n2)CC1", "remaining compound": "94.8%"}
{"Structure (SMILES)": "CCCc1nc2c(c(C)c(C)n2Cc2ccncc2)c(N)c1CC", "remaining compound": "68.6%"}
{"Structure (SMILES)": "COc1cc(=O)[nH]cc1C(=O)N1CCCC(N2CCOCC2)C1 (stereo not drawn)", "remaining compound": "91.3%"}
{"Structure (SMILES)": "O=C(Nc1ccc(N2CCCS2(=O)=O)cc1)NC1CCCCC1", "remaining compound": "86.9%"}
{"Structure (SMILES)": "Cc1ccc(C2c3cccn3-c3sc4c(c3CN2C(=O)Nc2ccc(F)cc2F)CCCC4)cc1 (stereo not drawn)", "remaining compound": "57.2%"}
{"Structure (SMILES)": "CC(C)[C@@H](Oc1ccc(NC(=O)C2CC=NN2C(=O)C[C@H](N)Cc2cc(F)c(F)cc2F)cc1)C(=O)O (stereo partly drawn)", "remaining compound": "80.6%"}
{"data": "Study 3", "SMILES": "COc1ccc2c(c1)O[C@@H](c1ccc(OC)c(OC)c1)C[C@H]2NC(=O)C1(c2ccc3c(c2)OC(F)(F)O3)CC1", "technique": "competition with immobilised ligand", "concentration": "1 µM"}
{"target": "Tyrosine-protein kinase Fgr (FGR, Homo sapiens, UniProt P09769)", "test": "cell-free assay", "remaining binding [%]": 94}
{"target": "Uncharacterized serine/threonine-protein kinase SBK3 (SBK3, Homo sapiens, UniProt P0C264)", "test": "cell-free assay", "remaining binding [%]": 100}
{"target": "Microtubule-associated serine/threonine-protein kinase 1 (MAST1, Homo sapiens, UniProt Q9Y2H9)", "test": "cell-free assay", "remaining binding [%]": 100}
{"target": "Mast/stem cell growth factor receptor Kit (KIT, Homo sapiens, UniProt P10721, T670I/V559D)", "test": "cell-free assay", "remaining binding [%]": 99}
{"target": "Cyclin-dependent kinase 16 (CDK16, Homo sapiens, UniProt Q00536)", "test": "cell-free assay", "remaining binding [%]": 88}
{"target": "Mast/stem cell growth factor receptor Kit, autoinhibited (KIT, Homo sapiens, UniProt P10721)", "test": "cell-free assay", "remaining binding [%]": 88}
{"target": "Tyrosine-protein kinase Srms (SRMS, Homo sapiens, UniProt Q9H3Y6)", "test": "cell-free assay", "remaining binding [%]": 94}
{"target": "Mitogen-activated protein kinase kinase kinase 10 (MAP3K10, Homo sapiens, UniProt Q02779)", "test": "cell-free assay", "remaining binding [%]": 100}
{"target": "Serine/threonine-protein kinase 33 (STK33, Homo sapiens, UniProt Q9BYT3)", "test": "cell-free assay", "remaining binding [%]": 68}
{"target": "Mitogen-activated protein kinase kinase kinase kinase 5 (MAP4K5, Homo sapiens, UniProt Q9Y4K4)", "test": "cell-free assay", "remaining binding [%]": 100}
{"target": "Tyrosine-protein kinase TXK (TXK, Homo sapiens, UniProt P42681)", "test": "binding", "remaining binding [%]": 97}
{"target": "Mitogen-activated protein kinase 10 (MAPK10, Homo sapiens, UniProt P53779)", "test": "cell-free assay", "remaining binding [%]": 99}
{"target": "Wee1-like protein kinase 2 (WEE2, Homo sapiens, UniProt P0C1S8)", "test": "cell-free assay", "remaining binding [%]": 100}
{"target": "Phosphatidylinositol 5-phosphate 4-kinase type-2 beta (PIP4K2B, Homo sapiens, UniProt P78356)", "test": "cell-free assay", "remaining binding [%]": 100}
{"target": "Serine/threonine-protein kinase PAK 3 (PAK3, Homo sapiens, UniProt O75914)", "test": "cell-free assay", "remaining binding [%]": 87}
{"data": "Study 4", "SMILES": "CC(C)CN(C)c1nc(N)c(C(=O)N=C(N)N)nc1Cl", "observed": "β-arrestin recruitment", "mode": "agonist", "technique": "PRESTO-Tango", "concentration": "10 µM", "reference": "untreated"}
{"target": "Delta-type opioid receptor (OPRD1, Homo sapiens, UniProt P41143)", "fold over basal": 9.87}
{"target": "Metabotropic glutamate receptor 2 (GRM2, Homo sapiens, UniProt Q14416)", "fold over basal": "0.78 fold"}
{"target": "Platelet-activating factor receptor (PTAFR, Homo sapiens, UniProt P25105)", "fold over basal": 1.43}
{"target": "D(1A) dopamine receptor (DRD1, Homo sapiens, UniProt P21728)", "fold over basal": 0.53}
{"target": "12-(S)-hydroxy-5,8,10,14-eicosatetraenoic acid receptor (GPR31, Homo sapiens, UniProt O00270)", "fold over basal": 0.62}
{"target": "Relaxin-3 receptor 2 (RXFP4, Homo sapiens, UniProt Q8TDU9)", "fold over basal": 1.61}
{"target": "Cannabinoid receptor 2 (CNR2, Homo sapiens, UniProt P34972)", "fold over basal": 0.94}
{"target": "Glucagon receptor (GCGR, Homo sapiens, UniProt P47871)", "fold over basal": "0.75 fold"}
{"target": "Trace amine-associated receptor 9 (TAAR9, Homo sapiens, UniProt Q96RI9)", "fold over basal": "0.49 fold"}
{"target": "N-formyl peptide receptor 2 (FPR2, Homo sapiens, UniProt P25090)", "fold over basal": "0.71 fold"}
{"target": "Gastric inhibitory polypeptide receptor (GIPR, Homo sapiens, UniProt P48546)", "fold over basal": "0.48 fold"}
{"target": "Pyroglutamylated RF-amide peptide receptor (QRFPR, Homo sapiens, UniProt Q96P65)", "fold over basal": 0.65}
{"target": "Mas-related G-protein coupled receptor member X4 (Homo sapiens, UniProt Q96LA9)", "fold over basal": 1.89}
{"target": "Muscarinic acetylcholine receptor M2 (CHRM2, Homo sapiens, UniProt P08172)", "fold over basal": 0.99}
{"target": "C-C chemokine receptor type 3 (CCR3, Homo sapiens, UniProt P51677)", "fold over basal": 0.87}
{"target": "G-protein coupled bile acid receptor 1 (GPBAR1, Homo sapiens, UniProt Q8TDU6)", "fold over basal": "1.11 fold"}
{"target": "Glucose-dependent insulinotropic receptor (GPR119, Homo sapiens, UniProt Q8TDV5)", "fold over basal": 0.76}
{"note": "Excerpt of the above (study 4):"}
{"target": "12-(S)-hydroxy-5,8,10,14-eicosatetraenoic acid receptor (GPR31, Homo sapiens, UniProt O00270)", "fold over basal": 0.62}
{"target": "Relaxin-3 receptor 2 (RXFP4, Homo sapiens, UniProt Q8TDU9)", "fold over basal": 1.61}
{"target": "Cannabinoid receptor 2 (CNR2, Homo sapiens, UniProt P34972)", "fold over basal": 0.94}
{"target": "Glucagon receptor (GCGR, Homo sapiens, UniProt P47871)", "fold over basal": "0.75 fold"}
{"target": "Trace amine-associated receptor 9 (TAAR9, Homo sapiens, UniProt Q96RI9)", "fold over basal": "0.49 fold"}
{"target": "N-formyl peptide receptor 2 (FPR2, Homo sapiens, UniProt P25090)", "fold over basal": "0.71 fold"}
{"target": "Gastric inhibitory polypeptide receptor (GIPR, Homo sapiens, UniProt P48546)", "fold over basal": "0.48 fold"}
